Measurements gathered from unrelated publications.
Protocols differ between the studies behind these lines. ± marks the error that the study gave.
Method: steady-state kinetics
B1: enzyme S252E (Schizosaccharomyces pombe, UniProt P78804); chain MSTPYEPEFQQAYKEIVGSIESSKLFEVHPELKRVLPIISIPERVLEFRVTWEDDKGNCRVNTGYRVQFNSALGPYKGGLRFHPSVNLSILKFLGFEQIFKNALTGLPMGGGKGGSDFDPKGKSDNEIRRFSQAFMRQLFRYIGPQTDVPAGDIGVTGFVVMHMFGEYKRLRNEYSGVVTGKHMLTGGSNIRPEATGYGVVYYVKHMIEHRTKGAETLKGKRVAISGSGNVAQYAALKCIQEGAIVKSISDEKGVLIAKTAEGLVPEEIHEIMALKEKRASIADSASLCKKHHYIAGARPWTNVGEIDIALPCATQNEVSGEEAAALIKQGCRYVAEGSNMGSSAEAVEVFEKSRASGEGCWLAPGKAANAGGVAVSGLEMAQNAQFSTWTHAEVDAKLAGIMQNIFEQSTDVASKYCDSGSNNIPSLVDGANIAGFLKVATAMQAVGDWW
B2: enzyme (Ectocarpus siliculosus, UniProt D7FYY3); chain KTASLATVSSLGIDKATGITKPSTVHHNLPYPQVFEHETKNKEGESTANGTFCVSTGQFTGRSPKDKYFVQQAPSDKTLDWGKINVGVAPKVFENIYNKAVKHYNDNVDSMYVFDGYCGTSPKSRKNVRIITELAWQHHFAKNMFIRPETEAETAGFKPDFTIINACKVVNDDYKELGLNSEVAVVFNVEERKAVITGTWYGGEMKKGIFSMMNYWLPLDGVMAMHCSANKGKNGDTALFFGLSGTGKTTLSADPERYLIGDDEHGWDDDGIFNFEGGCYAKTINLSHENEPEIYDAIKRDALLENVVIKDNGEPDYTDVSKTENTRVSYPIYHIDNYEPSGMGGHPNSVIFLTCDAFGILPPVSRLSAGQAMYHFLSGYTAKVAGTERGVTEPTPNFSAGFGAAFLTLHPTMYADLLQKKLAKHGTQCYLINTGWTGGGYGVGKRMSIKATRACVDAVLDGSIGKTTFTPDPVFGFEVPAELPGVPAKVLNPREAWSDKKGYDATRTKLAGMFKDNFTKFVKPGVTDYTSYGPK
B3: enzyme H130A (Salinispora arenicola, UniProt A8M783); chain MASTPWISFTTDYGLADGFVAACHGVLARLAPTARVIDVTHLVPPGDVRRGAAVLAQTVPYLPAAVHVAVVDPGVGTARRAIALTAGNGLLVGPDNGLLLDAATALGGVDAAVELTNPDWLGARMSATFAGRDVFAPVAARLALGAPLADAGPAVEPGALVRLPTPLVQPETDGFTAEVLTVDHFGNVQLAATGALLESLPRSLRVAHRPAVHARTFDDAPPGGLLVHVDSAGLVAVAVNGGRAADLLAVTPGDQLRVTAG
B4: enzyme C76S (UniProt A0A0P0CH59); chain MRIALFSDIHANLPALEAVLANMETQQLDAIYCLGDLVGYAPWPNEVVAEIRKRRIPTIAGNYDEGVGLWSPNCGSAYKTDTEKDLGQQSIDFTNNVVTEETRKYLRMLPRQLRLTFMDGSKEENKIELLLVHGSPRKINEYLFEDRPEKSFLKMMEEANADLLFFGHTHKPYHRAMPYEHEGQTRYRHAINIGSVGKPKDGDPRTGYVVVELTPESSLTQKDSIKVEFIRVPYDVETAAQAVEASPLPNEFAQMLRTA
B5: enzyme (Methylibium petroleiphilum, UniProt A2SI32); chain PFAQIYLIEGRTEEQKRAVIEKVTQAMMEAVGAPKENVRVWIHDVPKENWGIGGVSAKALGR
B6: acsA (Pseudomonas chlororaphis, UniProt Q5CD72); chain MRDYEHVVESFDYLQSATQDLHGELTALNACVECCDRHAHGEAVALYCEAQDGHAERYRFRDLQRQAARFGNFLREQGVKPGDRVAGLMPRTVELLIAILGTWRIGAVYQPLFTAFGPKAIEQRLNCSNARWIVTDPHNRPKLDDVTDCPSIVVTGGAPQNPADHHFWSALNRQADDCAPVLLDASAPFLLMCTSGTTGPAKPLEVPLSAILAFKGYMRDAIDLRADDRFWNLADPGWAYGLYYAVTGPLACGYATLFYDGPFTVESTRHIIAKYAINNLAGSPTAYRFLIAAGAEFADAVRGRLRAVSSAGEPLNPQVVRWFAEQLGVVIHDHYGQTEIGMVLCNHHGLRHPVREGSAGYAVPGYRIVVLDKAHRELPAGQPGVLAVDRERSPLCWFDGYLGMPTQAFAGRYYLSGDIVELNDDGSISFVGRNDDLITTSGYRVGPFDVESALIEHPAVVEAAVIGKPDPQRTELIKAFVVLNTPYLPSPELAEELRLHVRQRLAAHAYPREMEFVDHLPKTPSGKLQRFILRNQEIAKQQALG
B7: UGT76G1 (Stevia rebaudiana, UniProt Q6VAB4); chain MENKTETTVRRRRRIILFPVPFQGHINPILQLANVLYSKGFSITIFHTNFNKPKTSNYPHFTFRFILDNDPQDERISNLPTHGPLAGMRIPIINEHGADELRRELELLMLASEEDEEVSCLITDALWYFAQSVADSLNLRRLVLMTSSLFNFHAHVSLPQFDELGYLDPDDKTRLEEQASGFPMLKVKDIKSAYSNWQILKEILGKMIKQTKASSGVIWNSFKELEESELETVIREIPAPSFLIPLPKHLTASSSSLLDHDRTVFQWLDQQPPSSVLYVSFGSTSEVDEKDFLEIARGLVDSKQSFLWVVRPGFVKGSTWVEPLPDGFLGERGRIVKWVPQQEVLAHGAIGAFWTHSGWNSTLESVCEGVPMIFSDFGLDQPLNARYMSDVLKVGVYLENGWERGEIANAIRRVMVDEEGEYIRQNARVLKQKADVSLMKGGSSYESLESLVSYISSL
B8: enzyme W53F (Thermoplasma volcanium, UniProt Q978S7); chain MAFHGLVKYSDITVEGYPKIQYHGFIGNNRTAMLVAMNGYIDFGCLPNFNSNAVFSSILDKNKGGYFAIFPSDTTDVYVDQYYKEMTNVLVTEFVKNGKIILRLTDFMPDSEYGKISFPEVHRFVESFSEPIDITIDFKPTFNYGQDKPIIEKDQHGFIFTTDKESIGISSEFPLRKNSDRIFGNVKMEPRSSSWIIALYGIHHLFRTTDYKSYLRLQETTDYWRKWASSSSYAGAYHSMVMRSALALKVLFYEPTGLMVAAPTASLPEAIGGERNWDYRFTWIRDTAYVIEALSSIGYKYEATEFLYDMMDMITRDNRIRTIYSIDDSNDLEERIIDYEGYRGSRPVRIGNKAVDQLQIDQYGSIVRAIHSMAKAGGIVNSYLWDFVEQVMAKIEYLWKYPDSSIWEFRTEPKQYVYSKVMSWAAFDSAISMAKDLGLSAPIKQWKSIQDEIKKEVLEKGFDTDTNSFVQYYGSKNIDAALLRLPILGFIPANDEKFLGTLSRIEKELMVDGYLFKRYREDDGLKGDEGSFLMLTFWYIEDLILMKRLKKAREVLESVLEKANHLGLYSEEIDEKSGDFLGNFPQALSHLGVIRVAPKLEEALLKRTSKINS

B1 (enzyme S252E)  kcat (NC(=O)C1=CN([C@@H]2O[C@H](COP(=O)(O)OP(=O)(O)OC[C@H]3O[C@@H](n4cnc5c(N)ncnc54)[C@H](O)[C@@H]3O)[C@@H](O)[C@H]2O)C=CC1; pH 7, 30 °C, apparent): 180 ± 6 s⁻¹
B2 (enzyme)  kcat (C=C(OP(=O)(O)O)C(=O)O; pH 5.5, 25 °C, added: 2 mM ADP): 16.5 ± 0.3 s⁻¹
ackA (Escherichia coli, UniProt P0A6A3)  kcat (Nc1ncnc2c1ncn2[C@@H]1O[C@H](COP(=O)(O)OP(=O)(O)OP(=O)(O)O)[C@@H](O)[C@H]1O; pH 7.6, 25 °C, added: acetate): 420 ± 190 s⁻¹
B3 (enzyme H130A)  kcat (C[S+](CC[C@H](N)C(=O)O)C[C@H]1O[C@@H](n2cnc3c(N)ncnc32)[C@H](O)[C@@H]1O; pH 7.9, 37 °C, apparent, added: 1-200 µM SAM): 0.00267 ± 0.000167 s⁻¹
enzyme (Methanosarcina mazei, UniProt Q8PVB1)  kcat (Nc1ncnc2c1ncn2[C@@H]1O[C@H](COP(=O)(O)OP(=O)(O)OP(=O)(O)O)[C@@H](O)[C@H]1O; pH 8.5, 25 °C, apparent, anoxic, added: L-Thr 10 mM): 0.036 ± 0.001 s⁻¹
B4 (enzyme C76S)  kcat (O=[N+]([O-])c1ccc(OP(=O)(O)O)cc1; pH 7, 37 °C, added: Ni2+ 0.25 mM): 0.0683 ± 0.00333 s⁻¹
enzyme (UniProt Q83XK4)  kcat (NC(=O)C1=CN([C@@H]2O[C@H](COP(=O)(O)OP(=O)(O)OC[C@H]3O[C@@H](n4cnc5c(N)ncnc54)[C@H](O)[C@@H]3O)[C@@H](O)[C@H]2O)C=CC1; pH 7, 30 °C, cofactor varied): 0.085 ± 0.004 s⁻¹
enzyme (Chlamydomonas reinhardtii, UniProt A0A2K3D977)  kcat (O=C(CO)COP(=O)(O)O; pH 7.5, added: NADH 500 µM): 248 ± 36 s⁻¹
enzyme (Lactiplantibacillus plantarum, UniProt Q06115)  kcat (CC(C)C[C@H](NC(=O)CC[C@@H](C)[C@H]1CC[C@H]2[C@@H]3[C@H](O)C[C@@H]4C[C@H](O)CC[C@]4(C)[C@H]3C[C@H](O)[C@]12C)C(=O)O; pH 6.2, 37 °C): 0.7 ± 0.05 s⁻¹
B5 (enzyme)  kcat (O=C(O)/C=C/C=C(\O)C(=O)O; pH 7.3, 24 °C): 4600 ± 200 s⁻¹
B6 (acsA)  kcat (C#CCCC(=O)O; pH 7): 0.0667 ± 0.0167 s⁻¹
B7 (UGT76G1)  kcat (C=C1C[C@@]23CC[C@H]4[C@@](C)(CCC[C@@]4(C)C(=O)O[C@@H]4O[C@H](CO)[C@@H](O)[C@H](O)[C@H]4O)[C@@H]2CC[C@]1(O[C@@H]1O[C@H](CO)[C@@H](O)[C@H](O)[C@H]1O)C3; pH 7.25, 40 °C): 0.207 ± 0.00533 s⁻¹
B8 (enzyme W53F)  kcat (OC[C@H]1O[C@H](O[C@H]2O[C@H](CO)[C@@H](O)[C@H](O)[C@H]2O)[C@H](O)[C@@H](O)[C@@H]1O; pH 3.7, 30 °C): 21.7 ± 0.1 s⁻¹
enzyme F30A (Homo sapiens, UniProt Q08623)  kcat (O=c1[nH]cc([C@@H]2O[C@H](COP(=O)(O)O)[C@@H](O)[C@H]2O)c(=O)[nH]1; pH 7, 25 °C): 1.83 s⁻¹
spt R378K (Sphingomonas paucimobilis)  kcat (CCCCCCCCCCCCCCCC(=O)SCCNC(=O)CCNC(=O)[C@H](O)C(C)(C)COP(=O)(O)OP(=O)(O)OC[C@H]1O[C@@H](n2cnc3c(N)ncnc32)[C@H](O)[C@@H]1OP(=O)(O)O; added: PLP): 0.12 ± 0.02 s⁻¹
PYCR2 (Homo sapiens, UniProt Q96C36)  kcat (O=C(O)[C@@H]1CCC=N1; pH 7.5, 37 °C, apparent, added: NADH 500 µM): 61.3 ± 1.4 s⁻¹

Repeated from above:
B7 (UGT76G1)  kcat (C=C1C[C@@]23CC[C@H]4[C@@](C)(CCC[C@@]4(C)C(=O)O[C@@H]4O[C@H](CO)[C@@H](O)[C@H](O)[C@H]4O)[C@@H]2CC[C@]1(O[C@@H]1O[C@H](CO)[C@@H](O)[C@H](O)[C@H]1O)C3; pH 7.25, 40 °C): 0.207 ± 0.00533 s⁻¹
enzyme (Methanosarcina mazei, UniProt Q8PVB1)  kcat (Nc1ncnc2c1ncn2[C@@H]1O[C@H](COP(=O)(O)OP(=O)(O)OP(=O)(O)O)[C@@H](O)[C@H]1O; pH 8.5, 25 °C, apparent, anoxic, added: L-Thr 10 mM): 0.036 ± 0.001 s⁻¹
enzyme (Chlamydomonas reinhardtii, UniProt A0A2K3D977)  kcat (O=C(CO)COP(=O)(O)O; pH 7.5, added: NADH 500 µM): 248 ± 36 s⁻¹
